Assay results of several laboratories.
Every numbered part comes from another study and shows a few of its results, in no order. Changes are numbered by the printed parent chain.

Series 1
Target: ABI1, truncated, D143A, DHFR fusion (Arabidopsis thaliana)
Method: DHFR PCA, deep sequencing
Sample: yeast
Setting: methotrexate growth selection, single substitutions
With: (+)-ABA 1.4 µM
Reference: wild-type fitted maximum
Direction: higher = stronger binding
Starting sequence: PYL1, truncated, DHFR fusion (Arabidopsis thaliana); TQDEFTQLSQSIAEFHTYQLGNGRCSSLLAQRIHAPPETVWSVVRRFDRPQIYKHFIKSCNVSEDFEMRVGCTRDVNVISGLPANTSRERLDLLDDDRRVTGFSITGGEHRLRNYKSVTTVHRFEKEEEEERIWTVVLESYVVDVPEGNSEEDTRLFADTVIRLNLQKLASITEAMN; partner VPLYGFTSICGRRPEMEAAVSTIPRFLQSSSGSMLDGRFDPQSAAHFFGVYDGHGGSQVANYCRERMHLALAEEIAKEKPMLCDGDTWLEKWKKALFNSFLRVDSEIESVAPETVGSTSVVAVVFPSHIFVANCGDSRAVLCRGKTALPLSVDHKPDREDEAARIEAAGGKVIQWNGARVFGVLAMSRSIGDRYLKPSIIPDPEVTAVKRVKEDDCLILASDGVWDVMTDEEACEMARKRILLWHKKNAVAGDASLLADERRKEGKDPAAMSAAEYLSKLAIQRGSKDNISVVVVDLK
Under “relative binding score”, `A170S` is recorded as 11.1%.
`S27I`: “relative binding score” -9.13%.
`S42A` — result for “relative binding score”: 52.2%.
For `L93F`, “relative binding score” read 37.9%.
Under “relative binding score”, `Y53I` is recorded as -5.99%.
`H122A` — result for “relative binding score”: -0.937%.
For `S26G`, “relative binding score” read 35.6%.
`A84L`: “relative binding score” 10%.
`V142A`: “relative binding score” 41%.
`N149H`: “relative binding score” 22.1%.
For `D96Y`, “relative binding score” read 13%.
`H34A` — result for “relative binding score”: 56.6%.
Under “relative binding score”, `K126M` is recorded as 69.8%.
Under “relative binding score”, `N61K` is recorded as 74.2%.
`E127T`: “relative binding score” 60.9%.
Under “relative binding score”, `L28I` is recorded as 55.5%.
For `R163E`, “relative binding score” read 13.8%.
`T86N` — result for “relative binding score”: 77.7%.
`H110T`: “relative binding score” 33.7%.
Under “relative binding score”, `K58Y` is recorded as 11.2%.
For `Y18A`, “relative binding score” read 4.88%.

Series 2
Target: CCNE1, cyclin fold, Cln2 fusion (human)
Method: yeast growth competition, sequencing
Sample: yeast
Setting: weak parent motif
Reference: not given
Direction: higher = stronger binding
Starting sequence: FZR1 docking peptide (human); QDYERRLLRQIVI
`QDYARRLLRQIVI [E4A]` — result for “normalised enrichment score”: 1.09.
For `QDYERALLRQIVI [R6A]`, “normalised enrichment score” read 0.38.
`QDYERRLFRQIVI [L8F]`: “normalised enrichment score” -0.0394.
`ADYERRLLRQIVI [Q1A]`: “normalised enrichment score” 0.437.
For `QDYERRLLRQAVI [I11A]`, “normalised enrichment score” read 1.55.
`QDYEKRLFRQIVI [R5K L8F]` — result for “normalised enrichment score”: 0.321.
`QDYERRLLAQIVI [R9A]` — result for “normalised enrichment score”: -0.221.
`QDYERRLLRAIVI [Q10A]` — result for “normalised enrichment score”: 0.589.
`QDYEARALRQIVI [R5A L7A]` — result for “normalised enrichment score”: 0.021.
For `QDAERRLLRQIVI [Y3A]`, “normalised enrichment score” read 0.726.

Series 3
Target: Max dimerization protein 1, bHLH-zipper, MAX partner unstated (MXD1, Homo sapiens, UniProt Q05195, residues 56-136)
Method: protein-binding microarray
Form: double-stranded DNA, one strand shown
Sample: in vitro
Tested at: not given
Setting: k-mer, scored over probes, only values ≥0.25
Direction: higher = stronger binding
Target sequence (chain): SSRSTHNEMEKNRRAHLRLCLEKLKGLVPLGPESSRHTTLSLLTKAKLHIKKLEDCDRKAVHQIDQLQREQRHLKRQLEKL
`CGCATGCA` gave an E-score of 0.401.
With `ACGTGCAG` the E-score was 0.343.
With `CATGTTCC` the E-score was 0.261.
For `CATGTTTC`, the E-score was 0.382.
The E-score of `CGTGGCAC` is reported as 0.299.
`ATACAGCA` has an E-score of 0.251.
`ACGCACGC` gave an E-score of 0.353.
`CCGCACGA` has an E-score of 0.273.
`ATCCATGC` has an E-score of 0.293.
`CGCCCACG` gave an E-score of 0.316.
`CCAGCACG` gave an E-score of 0.312.
`ACCCTCCC` gave an E-score of 0.307.
For `CGTGCTAG`, the E-score was 0.264.
With `AGAACATG` the E-score was 0.284.
The E-score of `CGTGTCCA` is reported as 0.278.
With `CCATGCAC` the E-score was 0.326.
`CATGGCCG` gave an E-score of 0.265.
`ACGTGTCT` gave an E-score of 0.394.
With `ATGTGTCC` the E-score was 0.346.
`CACATGCA` gave an E-score of 0.43.
`ACCACGCG` gave an E-score of 0.462.
The E-score of `CCGCATGC` is reported as 0.414.

Series 4
Target: UBE2E2 UBC core domain (UniProt Q96LR5)
Chain of UniProt Q96LR5 (whole entry, looked up): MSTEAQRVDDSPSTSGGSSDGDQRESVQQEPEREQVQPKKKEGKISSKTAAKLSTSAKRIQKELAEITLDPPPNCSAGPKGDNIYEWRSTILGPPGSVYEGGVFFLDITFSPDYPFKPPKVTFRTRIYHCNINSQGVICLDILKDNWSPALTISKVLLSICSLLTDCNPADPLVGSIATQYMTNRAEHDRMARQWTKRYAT
Method: yeast two-hybrid
Sample: yeast
Setting: mostly zero background
Reference: not given
Direction: higher = stronger interaction
B1: RNF175 RING domain (UniProt Q8N4F7); chain LPTRSLSDNICAVCGQKIIVELDEEGLIENTYQLSCNHVFHEFCIRGWCIVGKKQTCPYCKEKVDLKRMIS
B2: RNF4 RING domain (UniProt P78317); chain TGLRPSGTVSCPICMDGYSEIVQNGRLIVSTECGHVFCSQCLRDSLKNANTCPTCRKKINHKRYHP
B3: TRIM52 RING domain (UniProt Q96A61); chain PMQTLQEEAVCAICLDYFKDPVSISCGHNFCRGCVTQLWSKEDEEDQNEEEDEWEEEEDEEAV
B4: TRIM38 RING domain (UniProt O00635); chain STKKMMEEATCSICLSLMTNPVSINCGHSYCHLCITDFFKNPSQKQLRQETFCCPQCRAPFHMDSLRP
B5: RNF150 RING domain (UniProt Q9ULK6); chain DKETESDFDNCAVCIEGYKPNDVVRILPCRHLFHKSCVDPWLLDHRTCPMCKMNILKALGIP
B6: TRIM35 RING domain (UniProt Q9UPQ4); chain PSRSFKEELLCAVCYDPFRDAVTLRCGHNFCRGCVSRCWEVQVSPTCPVCKDRASPADLRT
B7: NSMCE1 RING domain (UniProt Q8WV22); chain RETYPDAVKICNICHSLLIQGQSCETCGIRMHLPCVAKYFQSNAEPRCPHCNDYWPHEIPKV
B8: RNF14 RING domain (UniProt Q9UBS8); chain IKCFNSKLFLCSICFCEKLGSECMYFLECRHVYCKACLKDYFEIQIRDGQVQCLNCPEPKCPSVATPGQVK
B9: TRIM10 RING domain (UniProt Q9UDY6); chain SVTSLADEVNCPICQGTLREPVTIDCGHNFCRACLTRYCEIPGPDLEESPTCPLCKEPFRPGSFRP
B10: RNF112 RING domain (UniProt Q9ULX5); chain QPMAPRELPTCSICLERLRDPISLDCGHDFCIRCFSTHRLPGCEPPCCPECRKICKQKRGLR
Under “lacZ reporter activity”, `B1 (RNF175 RING domain)` is recorded as 0.
For `B2 (RNF4 RING domain)`, “lacZ reporter activity” read 0.
`B3 (TRIM52 RING domain)`: “lacZ reporter activity” 0.
For `B4 (TRIM38 RING domain)`, “lacZ reporter activity” read 0.
`B5 (RNF150 RING domain)` — result for “lacZ reporter activity”: 0.
Under “lacZ reporter activity”, `B6 (TRIM35 RING domain)` is recorded as 0.
`B7 (NSMCE1 RING domain)`: “lacZ reporter activity” 0.
Under “lacZ reporter activity”, `B8 (RNF14 RING domain)` is recorded as 0.
Under “lacZ reporter activity”, `QLQDEEDDSLCRICMDAVIDCVLLECGHMVTCTKCGKRMSECPICRQYVVRAVHVF (RNF34 RING domain (UniProt Q969K3))` is recorded as 0.
`KRQCSDVDDICSICQAEFQKPILLICQHIFCEECMTLWFNREKTCPLCRTVISDHINKW (RNFT1 RING domain (UniProt Q5M7Z0))`: “lacZ reporter activity” 0.
For `B9 (TRIM10 RING domain)`, “lacZ reporter activity” read 0.
`B10 (RNF112 RING domain)` — result for “lacZ reporter activity”: 0.
`ISNDSETLEECMVCSDMKRDTLFGPCGHIATCSLCSPRVKKCLICKEQVQSRTKIE (MIB1 RING domain (UniProt Q86YT6))` — result for “lacZ reporter activity”: 0.

Series 5
Target: RING finger protein unkempt homolog, zinc fingers 1-6, GST-SBP tag (UNK, Homo sapiens, UniProt Q9C0B0, residues 30-357)
Chain of UniProt Q9C0B0 (30-357, looked up): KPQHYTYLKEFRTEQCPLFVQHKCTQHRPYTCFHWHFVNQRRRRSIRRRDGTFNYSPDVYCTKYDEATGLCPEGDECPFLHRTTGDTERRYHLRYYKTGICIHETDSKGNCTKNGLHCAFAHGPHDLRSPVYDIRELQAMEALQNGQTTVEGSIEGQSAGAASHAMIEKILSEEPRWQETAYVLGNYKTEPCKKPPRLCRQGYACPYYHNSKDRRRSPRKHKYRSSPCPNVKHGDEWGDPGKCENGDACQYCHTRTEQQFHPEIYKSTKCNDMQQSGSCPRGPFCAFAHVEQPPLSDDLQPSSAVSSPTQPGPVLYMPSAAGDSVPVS
Method: RNA Bind-n-Seq
Form: RNA
Sample: in vitro
Tested at: not given
Setting: RNA with constant flanks, human-mouse chimeric sites, ends assumed
Reference: input RNA pool
Direction: higher = stronger binding
`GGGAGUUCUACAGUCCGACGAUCUAAAUUAGCCAGCACCAUUUCUGUUUCUCCCUGGGCUGCGGAAAGCCAGAAGAUUUUAUCUAGCUUAUACAAGGCUGCUGGUGUUCCCUCUUUUUUUCCACGAGGGUUUUUUUUCCAGCACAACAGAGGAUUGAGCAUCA` has a bound/input enrichment of 1.54 ratio.
The bound/input enrichment of `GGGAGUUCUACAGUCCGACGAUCCAGGGCAUCAUCUCUCGUGCUGUUAGACACCUGUUCAAGAGUAUUGAUGAGAAAAAGACCUCAGCGAUUAAAAAUGGGCUUCCUGCUCCUGAAUUCAAAGUGAAUGCCCAGUUCCUAGAGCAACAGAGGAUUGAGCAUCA` is reported as 0.218 ratio.
The bound/input enrichment of `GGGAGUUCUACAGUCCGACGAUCGAAACAUUUAAAUUUAAAGAAGCUGUUGUUCUAGGAAGUACGGACUUUCUAGAAGAUGAUAUAGAGAAAAUUGUAGAAGAACUGGGAAAAGAGUAUAAAGGCAAUGCCUACCAUCUGAUGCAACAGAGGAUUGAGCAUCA` is reported as 1.12 ratio.
`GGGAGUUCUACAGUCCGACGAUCAGAAUCUGUGACUGGCUUUACUUAAUUGGUCAUUGAUAGCUUAACAAACAUGGAGAUAAGAUUAGAAAUCUUGACAUCAACAGGUAUUAAGCAGAAAAAACCAUGGCCCAGAGUAUCCUGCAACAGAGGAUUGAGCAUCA` has a bound/input enrichment of 0.152 ratio.
`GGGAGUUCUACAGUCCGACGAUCGAGCGUCUUGCCCGCACUGGGAUCAUCGUGACCACUAGUGAGGCUGUCCUCCUACAGCUGGUGGCUGACAAAGACCACCCGAAGUUCAAGGAAAUUCAGAAUCUAAUUAAGGCGAGUGCCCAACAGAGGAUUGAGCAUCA` has a bound/input enrichment of 0.113 ratio.
The bound/input enrichment of `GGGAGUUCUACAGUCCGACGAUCCUGUUUUACAGCCACACAAUUCUUGGCAUGUAUUAAGGAAAAAAAAAAUCCCUGUUGAAGUAGUUUUUCCACCUAUCAGCACUGAGUAAAUGCCAUAACUCCGCGGAAAUGGUCUAAAUACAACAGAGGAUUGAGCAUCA` is reported as 0.228 ratio.
`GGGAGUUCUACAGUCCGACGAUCAGAAUCUUGGGACUGUUUUGCUUGAUUGGUCAUUGAUAGCUUAACAAACAUGGAGAUGAGAUUAGAAAUCUUGACAUCAACAGGUAUUAAGCAGAAAAAACCAUGGCCACGUGUCUCCUGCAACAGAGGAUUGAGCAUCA` gave a bound/input enrichment of 0.122 ratio.
The bound/input enrichment of `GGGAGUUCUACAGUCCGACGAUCGAGCCCAGCCGGCAGUUUGUAAAGGACUCAAUUCGGCUGGUUAAAAGAUGCACCAAACCUGAUAGAAAAGAAUUCCAGAAGAUUGCCAUGGCUACAGCUAUAGGAUUUGCUAUCAUGGGACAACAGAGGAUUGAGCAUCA` is reported as 0.287 ratio.

Excerpt of the above (series 3):
For `CGTGCTAG`, the E-score was 0.264.
With `AGAACATG` the E-score was 0.284.
The E-score of `CGTGTCCA` is reported as 0.278.
With `CCATGCAC` the E-score was 0.326.
`CATGGCCG` gave an E-score of 0.265.
`ACGTGTCT` gave an E-score of 0.394.
With `ATGTGTCC` the E-score was 0.346.
